Measurements from different studies.
Each numbered part is a random draw from the data of one study; scales do not carry over between parts. Numbers after ± are the reported error.
UniProt Q9NRM7, sequence (whole entry, looked up): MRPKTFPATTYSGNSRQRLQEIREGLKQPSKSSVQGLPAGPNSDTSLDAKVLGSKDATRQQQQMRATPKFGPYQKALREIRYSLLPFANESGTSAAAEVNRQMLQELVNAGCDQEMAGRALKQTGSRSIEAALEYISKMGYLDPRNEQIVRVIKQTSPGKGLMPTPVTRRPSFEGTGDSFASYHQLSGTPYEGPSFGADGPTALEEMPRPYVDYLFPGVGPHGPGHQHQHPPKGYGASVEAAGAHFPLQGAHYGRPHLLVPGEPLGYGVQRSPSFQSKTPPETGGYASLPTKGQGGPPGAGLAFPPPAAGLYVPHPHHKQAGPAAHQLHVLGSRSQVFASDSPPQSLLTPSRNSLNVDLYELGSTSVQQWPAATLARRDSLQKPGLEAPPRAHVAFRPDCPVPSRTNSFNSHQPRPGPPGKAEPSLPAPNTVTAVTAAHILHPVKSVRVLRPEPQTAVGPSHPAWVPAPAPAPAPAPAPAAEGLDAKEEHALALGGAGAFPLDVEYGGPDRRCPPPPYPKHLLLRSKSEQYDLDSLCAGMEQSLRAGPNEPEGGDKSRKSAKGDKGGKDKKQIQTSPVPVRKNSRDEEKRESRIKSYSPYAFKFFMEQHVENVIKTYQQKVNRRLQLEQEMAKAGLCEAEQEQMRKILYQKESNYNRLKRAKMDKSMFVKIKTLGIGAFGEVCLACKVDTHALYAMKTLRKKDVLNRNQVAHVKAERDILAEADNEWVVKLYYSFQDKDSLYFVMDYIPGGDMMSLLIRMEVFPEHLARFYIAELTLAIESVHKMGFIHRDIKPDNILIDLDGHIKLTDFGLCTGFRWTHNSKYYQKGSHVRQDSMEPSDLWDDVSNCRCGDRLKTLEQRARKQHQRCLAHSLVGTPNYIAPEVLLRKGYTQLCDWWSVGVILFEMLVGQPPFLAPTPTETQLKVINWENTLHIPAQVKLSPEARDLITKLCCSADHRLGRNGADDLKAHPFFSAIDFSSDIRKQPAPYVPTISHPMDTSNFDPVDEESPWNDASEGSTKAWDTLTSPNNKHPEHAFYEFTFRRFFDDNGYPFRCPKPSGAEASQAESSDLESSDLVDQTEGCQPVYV
UniProt Q16620, sequence (whole entry, looked up): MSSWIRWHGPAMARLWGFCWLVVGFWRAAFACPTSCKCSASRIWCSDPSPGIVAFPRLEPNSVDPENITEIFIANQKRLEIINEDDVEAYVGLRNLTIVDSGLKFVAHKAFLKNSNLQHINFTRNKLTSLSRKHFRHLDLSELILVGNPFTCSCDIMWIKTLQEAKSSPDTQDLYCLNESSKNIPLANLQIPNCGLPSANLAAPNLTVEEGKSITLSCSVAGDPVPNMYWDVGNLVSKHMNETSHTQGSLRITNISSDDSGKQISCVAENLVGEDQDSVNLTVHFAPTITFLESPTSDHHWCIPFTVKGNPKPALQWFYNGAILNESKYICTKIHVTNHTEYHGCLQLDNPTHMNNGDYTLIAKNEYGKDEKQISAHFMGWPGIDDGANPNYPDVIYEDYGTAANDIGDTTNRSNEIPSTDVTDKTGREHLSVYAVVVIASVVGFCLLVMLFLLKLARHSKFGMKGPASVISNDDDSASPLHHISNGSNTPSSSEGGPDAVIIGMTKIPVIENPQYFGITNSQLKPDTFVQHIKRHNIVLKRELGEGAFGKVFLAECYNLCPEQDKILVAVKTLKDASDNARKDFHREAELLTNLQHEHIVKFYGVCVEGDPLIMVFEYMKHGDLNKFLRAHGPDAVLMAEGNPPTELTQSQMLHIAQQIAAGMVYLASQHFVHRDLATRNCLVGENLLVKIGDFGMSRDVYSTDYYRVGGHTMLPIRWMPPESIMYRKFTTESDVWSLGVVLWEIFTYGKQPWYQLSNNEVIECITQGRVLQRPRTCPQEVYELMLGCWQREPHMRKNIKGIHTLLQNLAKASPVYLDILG
UniProt Q9UK32, sequence (whole entry, looked up): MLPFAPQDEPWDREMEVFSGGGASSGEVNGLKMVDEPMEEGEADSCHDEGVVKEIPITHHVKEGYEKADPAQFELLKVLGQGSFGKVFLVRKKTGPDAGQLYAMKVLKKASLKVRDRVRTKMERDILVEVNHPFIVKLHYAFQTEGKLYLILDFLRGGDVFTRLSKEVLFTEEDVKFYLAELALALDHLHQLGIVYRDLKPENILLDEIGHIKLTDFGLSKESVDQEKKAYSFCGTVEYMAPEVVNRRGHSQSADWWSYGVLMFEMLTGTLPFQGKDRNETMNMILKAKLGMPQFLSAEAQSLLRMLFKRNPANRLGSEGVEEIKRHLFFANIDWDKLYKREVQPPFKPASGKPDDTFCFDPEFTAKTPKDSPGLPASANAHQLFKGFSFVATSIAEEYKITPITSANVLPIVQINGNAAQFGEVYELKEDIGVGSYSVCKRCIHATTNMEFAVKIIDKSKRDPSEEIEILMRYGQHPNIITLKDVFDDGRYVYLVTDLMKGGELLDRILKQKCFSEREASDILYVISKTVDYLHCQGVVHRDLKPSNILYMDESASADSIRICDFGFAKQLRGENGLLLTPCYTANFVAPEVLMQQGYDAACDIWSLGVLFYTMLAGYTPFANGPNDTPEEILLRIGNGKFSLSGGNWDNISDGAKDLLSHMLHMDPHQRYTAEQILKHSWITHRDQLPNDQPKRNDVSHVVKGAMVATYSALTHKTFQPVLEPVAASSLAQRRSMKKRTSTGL
UniProt P37173, sequence (whole entry, looked up): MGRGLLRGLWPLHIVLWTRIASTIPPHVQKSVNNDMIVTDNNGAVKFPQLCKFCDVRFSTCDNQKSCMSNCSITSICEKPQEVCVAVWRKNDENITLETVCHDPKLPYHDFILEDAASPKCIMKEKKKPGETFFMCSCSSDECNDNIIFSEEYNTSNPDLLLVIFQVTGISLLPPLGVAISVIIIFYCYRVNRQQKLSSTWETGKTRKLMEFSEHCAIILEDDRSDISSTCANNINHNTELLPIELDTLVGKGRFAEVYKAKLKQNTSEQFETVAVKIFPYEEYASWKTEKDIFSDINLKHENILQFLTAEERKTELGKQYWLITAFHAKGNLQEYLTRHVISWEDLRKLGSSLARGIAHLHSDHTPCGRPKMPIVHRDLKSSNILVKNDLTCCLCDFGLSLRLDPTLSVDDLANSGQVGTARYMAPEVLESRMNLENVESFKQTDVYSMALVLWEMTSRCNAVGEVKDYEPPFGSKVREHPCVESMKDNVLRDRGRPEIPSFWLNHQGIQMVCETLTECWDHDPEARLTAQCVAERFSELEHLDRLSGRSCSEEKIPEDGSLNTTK
UniProt Q15569, sequence (whole entry, looked up): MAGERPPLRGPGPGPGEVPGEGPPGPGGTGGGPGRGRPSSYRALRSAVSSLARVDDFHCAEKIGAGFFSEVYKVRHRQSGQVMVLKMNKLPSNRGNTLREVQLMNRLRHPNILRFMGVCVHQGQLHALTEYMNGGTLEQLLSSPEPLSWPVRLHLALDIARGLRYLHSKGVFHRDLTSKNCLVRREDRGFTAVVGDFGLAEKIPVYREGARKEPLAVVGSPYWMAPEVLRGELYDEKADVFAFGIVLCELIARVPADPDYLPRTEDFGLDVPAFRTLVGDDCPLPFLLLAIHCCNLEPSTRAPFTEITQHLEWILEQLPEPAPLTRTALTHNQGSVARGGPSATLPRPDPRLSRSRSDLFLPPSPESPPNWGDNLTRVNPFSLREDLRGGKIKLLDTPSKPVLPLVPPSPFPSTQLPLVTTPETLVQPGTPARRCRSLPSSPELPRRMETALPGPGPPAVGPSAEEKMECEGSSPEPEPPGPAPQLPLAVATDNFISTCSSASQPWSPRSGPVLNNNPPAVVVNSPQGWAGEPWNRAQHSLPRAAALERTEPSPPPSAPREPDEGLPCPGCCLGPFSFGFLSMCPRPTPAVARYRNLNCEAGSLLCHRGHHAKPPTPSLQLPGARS
UniProt Q13188, sequence (whole entry, looked up): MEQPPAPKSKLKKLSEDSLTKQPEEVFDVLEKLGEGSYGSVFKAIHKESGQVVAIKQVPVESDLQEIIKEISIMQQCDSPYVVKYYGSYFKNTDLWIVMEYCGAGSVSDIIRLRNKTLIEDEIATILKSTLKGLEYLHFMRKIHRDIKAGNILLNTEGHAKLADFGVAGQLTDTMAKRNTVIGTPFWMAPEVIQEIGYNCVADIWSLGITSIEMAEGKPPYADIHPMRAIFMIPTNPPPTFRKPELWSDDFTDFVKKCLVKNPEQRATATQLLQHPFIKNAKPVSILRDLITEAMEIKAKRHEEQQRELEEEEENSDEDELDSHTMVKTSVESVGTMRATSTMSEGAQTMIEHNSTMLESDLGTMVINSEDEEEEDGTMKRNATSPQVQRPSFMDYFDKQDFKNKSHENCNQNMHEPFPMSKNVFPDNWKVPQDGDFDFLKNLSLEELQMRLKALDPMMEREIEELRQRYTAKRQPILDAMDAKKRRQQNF
UniProt O94921, sequence (whole entry, looked up): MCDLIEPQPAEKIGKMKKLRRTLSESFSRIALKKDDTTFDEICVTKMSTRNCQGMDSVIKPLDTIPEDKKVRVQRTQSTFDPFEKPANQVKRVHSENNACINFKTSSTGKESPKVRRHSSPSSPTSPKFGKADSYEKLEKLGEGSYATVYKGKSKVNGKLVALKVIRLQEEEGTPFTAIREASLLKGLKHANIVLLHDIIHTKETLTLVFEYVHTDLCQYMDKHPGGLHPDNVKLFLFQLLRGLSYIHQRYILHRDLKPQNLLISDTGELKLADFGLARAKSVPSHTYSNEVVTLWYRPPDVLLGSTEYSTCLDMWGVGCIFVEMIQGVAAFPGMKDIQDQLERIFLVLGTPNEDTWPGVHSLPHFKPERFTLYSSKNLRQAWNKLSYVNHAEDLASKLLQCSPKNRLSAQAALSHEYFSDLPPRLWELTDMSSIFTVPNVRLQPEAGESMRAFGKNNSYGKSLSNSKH

Study 1
Compound: COc1cc(C(=O)N2CCC(N3CCN(C)CC3)CC2)ccc1Nc1ncc2c(n1)N(C)c1ccccc1C(=O)N2C
Observed: kinase activity
IRR; 10 µM — remaining activity: 91 ± 6%.
For MAPK7 (Homo sapiens, UniProt Q13164); KiNativ profiling; 1 µM: remaining activity read 5%.
EF2K; 1 µM — remaining activity: 75 ± 10%.
For LKB1; 1 µM: remaining activity read 78%.
The remaining activity was 85 ± 1% (MAPKAP-K3; 1 µM).
It gave 75 ± 14% for remaining activity (SGK1; 1 µM).
The remaining activity was 33 ± 2% (Aurora A; 1 µM).
For MARK1; 10 µM: remaining activity read 93 ± 2%.
It gave 89 ± 3% for remaining activity (PAK6; 10 µM).
It gave 90 ± 1% for remaining activity (GSK3B; 1 µM).
It gave 92 ± 11% for remaining activity (MELK; 10 µM).
It gave 84 ± 4% for remaining activity (RSK2; 1 µM).

Study 2
Cell line: mouse MPNST tumor cells
Technique: high-content immunofluorescence imaging
Refers to: nuclear SOX9
Concentration: 10 µM
Time: 12 h
Notes: mean of 2 replicates
Relative to: DMSO control
Direction: higher = more nuclear SOX9
For COC(=O)CC1CC(c2ccc(O)cc2)=NO1 (centres unmarked), “nuclear SOX9 intensity” read 98.5 % of DMSO.
Cc1nnc(-c2ccc3occ(-c4ccc([S+](C)[O-])cc4)c3c2)o1 (centres unmarked) — result for “nuclear SOX9 intensity”: 91.3 % of DMSO.
Under “nuclear SOX9 intensity”, O=C(Cn1ccnc1[N+](=O)[O-])NCCO is recorded as 101 % of DMSO.
For COc1ccc(C2(O)CCC(N3CC[C@@H](NC(=O)CNC(=O)c4cccc(C(F)(F)F)c4)C3)CC2)cn1 (some centres unmarked), “nuclear SOX9 intensity” read 106 % of DMSO.
COc1ncc(-c2ccc3c(Nc4cc(Oc5cc(F)cc(F)c5)cc(C(=O)O)c4)c(S(=O)(=O)NC4CC4)cnc3c2)c(OC)n1: “nuclear SOX9 intensity” 103 % of DMSO.
FC(F)(F)c1ccc(/C=C/c2nc(COc3ccc(CCCCn4ccnn4)cc3)co2)cc1 — result for “nuclear SOX9 intensity”: 103 % of DMSO.
For C#CCN(C)CCCOc1ccc(Cl)cc1Cl, “nuclear SOX9 intensity” read 118 % of DMSO.
Under “nuclear SOX9 intensity”, CN(C(=O)CCCOc1ccc2[nH]c(=O)ccc2c1)C1CCCCC1 is recorded as 120 % of DMSO.
For Cc1ncc(C[n+]2csc(CCO)c2C)c(N)n1, “nuclear SOX9 intensity” read 91.1 % of DMSO.
Under “nuclear SOX9 intensity”, CN(Cc1cnc2nc(N)nc(N)c2n1)c1ccc(C(=O)N[C@@H](CCC(=O)O)C(=O)O)cc1 is recorded as 93.9 % of DMSO.
Under “nuclear SOX9 intensity”, O=C(Oc1nsnc1N1CCCCC1)N1CCCCC1 is recorded as 124 % of DMSO.
For N#C[C@H](Cc1ccc(O)cc1)c1ccc(O)cc1, “nuclear SOX9 intensity” read 94.2 % of DMSO.
CC(C)NCC(O)COc1ccc(COCCOC(C)C)cc1 (centres unmarked): “nuclear SOX9 intensity” 109 % of DMSO.
Under “nuclear SOX9 intensity”, O=C1NC(=NCc2cccs2)S/C1=C\c1ccc2ncccc2c1 is recorded as 98.2 % of DMSO.

Study 3
SMILES: Nc1c(C(=O)NCc2ccc(C(=O)NCCCC3CCCCC3)cc2)cnn1-c1ccccc1
Observed: cell-free assay
Technique: competition with immobilised ligand
Concentration: 0.1 µM
It gave 100% for remaining binding (FLT3 (Homo sapiens, UniProt P36888, ITD)).
For STK3 (Homo sapiens, UniProt Q13188): remaining binding read 100%.
For EPHA6 (Homo sapiens, UniProt Q9UF33): remaining binding read 94%.
ZAP70 (Homo sapiens, UniProt P43403) — remaining binding: 100%.
For PIK3C2G (Homo sapiens, UniProt O75747): remaining binding read 100%.
It gave 61% for remaining binding (Ribosomal protein S6 kinase alpha-6, C-terminal kinase domain (RPS6KA6, Homo sapiens, UniProt Q9UK32)).
ACVR1B (Homo sapiens, UniProt P36896) — remaining binding: 100%.
The remaining binding was 100% (HIPK1 (Homo sapiens, UniProt Q86Z02)).
For ACVRL1 (Homo sapiens, UniProt P37023): remaining binding read 100%.
For CDK17 (Homo sapiens, UniProt Q00537): remaining binding read 78%.
For SRPK1 (Homo sapiens, UniProt Q96SB4): remaining binding read 90%.
The remaining binding was 100% (CDK7 (Homo sapiens, UniProt P50613)).
For HIPK2 (Homo sapiens, UniProt Q9H2X6): remaining binding read 100%.
The remaining binding was 99% (TGFBR2 (Homo sapiens, UniProt P37173)).
For LATS2 (Homo sapiens, UniProt Q9NRM7): remaining binding read 100%.
FLT3 (Homo sapiens, UniProt P36888, N841I) — remaining binding: 95%.
For EGFR (Homo sapiens, UniProt P00533, del747-752/P753S): remaining binding read 100%.
The remaining binding was 100% (PIM2 (Homo sapiens, UniProt Q9P1W9)).
PIP5K1C (Homo sapiens, UniProt O60331) — remaining binding: 93%.
For NTRK2 (Homo sapiens, UniProt Q16620): remaining binding read 85%.
It gave 100% for remaining binding (CDK5 (Homo sapiens, UniProt Q00535)).
It gave 96% for remaining binding (PIK3CA (Homo sapiens, UniProt P42336, I800L)).
For TAOK1 (Homo sapiens, UniProt Q7L7X3): remaining binding read 91%.
The remaining binding was 90% (SGK3 (Homo sapiens, UniProt Q96BR1)).
The remaining binding was 100% (PIP4K2B (Homo sapiens, UniProt P78356)).

Study 4
Compound: Cc1sc(C(=O)NC2COC2)cc1-n1cc(NC(=O)Nc2c(F)cccc2Cl)cn1
Observed: enzyme activity
Concentration: 10 µM
The remaining activity was 94.7% (LATS2 (Homo sapiens, UniProt Q9NRM7); inhibitor).
MKNK2 (Homo sapiens, UniProt Q9HBH9); relative to: untreated control — remaining activity: 79.5%.
The remaining activity was 88.7% (TESK1 (Homo sapiens, UniProt Q15569); relative to: untreated control).
The remaining activity was 92.1% (TTBK2 (Homo sapiens, UniProt Q6IQ55); relative to: untreated control).
It gave 97.9% for remaining activity (PKN3 (Homo sapiens, UniProt Q6P5Z2); relative to: untreated control).
It gave 67.8% for remaining activity (ERN2 (Homo sapiens, UniProt Q76MJ5); relative to: untreated control).
For Cyclin-dependent kinase 1, with cyclin E (CDK1, Homo sapiens, UniProt P06493); relative to: untreated control: remaining activity read 97.1%.
For Cyclin-dependent kinase 8, with cyclin C (CDK8, Homo sapiens, UniProt P49336); relative to: untreated control: remaining activity read 91.8%.
For MUSK (Homo sapiens, UniProt O15146); relative to: untreated control: remaining activity read 102%.
The remaining activity was 92.2% (MAP3K19 (Homo sapiens, UniProt Q56UN5); relative to: untreated control).
TSSK6 (Homo sapiens, UniProt Q9BXA6); relative to: untreated control — remaining activity: 87.6%.
It gave 95.3% for remaining activity (CDK14 (Homo sapiens, UniProt O94921); relative to: untreated control).
The remaining activity was 87.3% (DYRK4 (Homo sapiens, UniProt Q9NR20); relative to: untreated control).
It gave 96.4% for remaining activity (ROCK1 (Homo sapiens, UniProt Q13464); relative to: untreated control).
